Published values collected from several papers.
Each line is one published result; not all experiments were run side by side. Values joined by “and” are separate records of one study, mostly repeats; a detail may differ.
SLC6A3: Sodium-dependent dopamine transporter (SLC6A3, Homo sapiens, UniProt Q01959)
UniProt Q01959, sequence (whole entry, unmodified, looked up): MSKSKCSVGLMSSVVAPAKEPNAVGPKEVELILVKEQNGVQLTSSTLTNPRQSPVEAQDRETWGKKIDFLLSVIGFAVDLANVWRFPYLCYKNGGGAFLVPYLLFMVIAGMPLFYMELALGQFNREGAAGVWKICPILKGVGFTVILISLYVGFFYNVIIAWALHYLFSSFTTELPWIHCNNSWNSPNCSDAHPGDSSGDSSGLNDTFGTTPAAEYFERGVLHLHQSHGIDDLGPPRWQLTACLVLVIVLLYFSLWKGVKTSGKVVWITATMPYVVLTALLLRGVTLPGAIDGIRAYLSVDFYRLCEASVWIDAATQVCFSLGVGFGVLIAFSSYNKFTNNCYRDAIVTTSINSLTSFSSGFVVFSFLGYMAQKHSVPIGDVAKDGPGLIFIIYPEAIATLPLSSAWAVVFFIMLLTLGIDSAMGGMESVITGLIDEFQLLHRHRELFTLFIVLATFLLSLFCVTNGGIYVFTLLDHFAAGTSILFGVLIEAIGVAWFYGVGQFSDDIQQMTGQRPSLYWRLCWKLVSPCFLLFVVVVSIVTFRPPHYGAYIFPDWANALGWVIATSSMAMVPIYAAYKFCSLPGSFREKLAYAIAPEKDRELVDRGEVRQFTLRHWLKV

Structure (SMILES)	target	test	setting	scale	measurement	result
CCO[C@H]1[C@H](O)[C@@H](N)[C@@H](O[C@H]2[C@H](O[C@@H]3O[C@H](CO)[C@@H](O[C@H]4O[C@@H](CN)[C@@H](O)[C@H](O)[C@H]4N)[C@H]3O)[C@@H](O)[C@H](N)C[C@@H]2N)O[C@@H]1CO	SLC6A3	radioligand binding	10 µM, 1% DMSO	–	specific binding	1%
O=C(O)c1ccc(-c2nc(-c3ccccc3Cl)c3sccn23)cc1	SLC6A3	radioligand binding, safety screen panel	10 µM	reference: control	specific binding	110% and 104%
CCOCC1C(c2ccc(Cl)c(Cl)c2)CC2CCC1N2C (centres unmarked)	Sodium-dependent dopamine transporter (SLC6A3, Homo sapiens, UniProt Q01959, F326A)	dopamine uptake	0.003 µM, 0.03333 h, F326A mutant, added: [3H]dopamine	reference: no inhibitor	remaining activity	40.6%
C[C@@H]1COCCN1c1nc(NCc2cccnc2C(F)(F)F)c2cccnc2n1	SLC6A3	binding	CEREP panel	–	IC50	> 100 µM
CCc1nnc(-c2c(OC)cc(-c3cnc4cc(-c5cnn(C)c5)ccn34)cc2OC)o1	SLC6A3	antagonist radioligand, radioligand binding	10 µM, SafetyScreen44 dopamine transporter mean	lower = stronger displacement	remaining binding	92.7%
Cc1sc2c(c1C)C(c1ccc(Cl)cc1)=NC(CC(=O)OC(C)(C)C)c1nnc(C)n1-2 (centres unmarked)	SLC6A3	ligand displacement, radioligand	1 µM	–	remaining binding	107%
CN[C@@H]1[C@H](O)[C@H](NC)[C@H]2O[C@]3(O)[C@H](O[C@@H]2[C@H]1O)O[C@H](C)C[C@H]3NC(=O)Cc1cc(Cl)ccn1	SLC6A3	ligand displacement, radioligand	10 µM	–	inhibition	6%
COc1ccc(F)cc1S(=O)(=O)Nc1cnc2c(c1)C(=O)NCCO2	SLC6A3	ligand displacement, radioligand	10 µM	–	inhibition	4%
